# Assay results pooled from the literature.
# ± marks the error that the study gave.
# DCPS: m7GpppX diphosphatase (DCPS, Homo sapiens, UniProt Q96C86)
SMILES,target,test,system,setting,how to read,quantity,value
C[n+]1cn(C2OC(COP(=O)(O)OP(=O)([O-])OP(=O)(O)OCC3OC(n4cnc5c(=O)[nH]c(N)nc54)C(O)C3O)C(O)C2O)c2nc(NCc3ccc(Cl)cc3)[nH]c(=O)c21 (stereo not shown),"NUDT16 (Homo sapiens, UniProt Q96DE0)","decapping, substrate",capped RNA transcribed by SP6 polymerase,"concentration not given, 30 min",,cap hydrolysis,26.4%
BP(=O)(OC[C@H]1O[C@@H](n2c[n+](C)c3c(O)nc(N)nc32)[C@H](O)[C@@H]1O)OP(=O)([O-])OP(=O)(O)OC[C@H]1O[C@@H](n2cnc3c(=O)[nH]c(N)nc32)[C@H](O)[C@@H]1O (stereo partly shown),DCPS,"binding, fluorescence quenching titration",,"pH 7.6, 20.0 °C",,association constant,77.4 ± 5.4 µM⁻¹
O=P(O)(O)O[C@@H]1[C@@H](O)[C@H](O)[C@H](O)[C@H](O)[C@H]1OP(=O)(O)O,"Inositol 1,4,5-trisphosphate-gated calcium channel ITPR1, N-terminal region (Itpr1, Rattus norvegicus, UniProt P29994, del318-332/R568Q)",[3H]IP3 competition binding,N-terminal fragment R568Q,Tris-EDTA medium,,Hill coefficient,0.8 ± 0.1
CN1CCN(CC(=O)N2N=C3/C(=C/c4ccccc4)CCCC3C2c2ccccc2)CC1 (mixture of isomers),"ALOX15 (Homo sapiens, UniProt P16050)",activator,,"10 µM, together with: arachidonic acid 25 µM",baseline: no activator,initial rate increase,98%
COc1ccc(C(SCC(N)C(=O)O)(c2ccccc2)c2ccccc2)cc1 (stereo not shown),"Kinesin-like protein KIF11, motor domain (KIF11, Homo sapiens, UniProt P52732)",ITC,,25 °C,,-TΔS,5.5 kcal/mol
CCCC[C@H](NC(=O)[C@H](CCCCN)NC(=O)[C@H](CCCCN)NC(=O)[C@H](CCCNC(=N)N)NC(=O)[C@H](CCCNC(=N)N)NC(=O)[C@H](CC(N)=O)NC(C)=O)C(=O)N1CCC[C@H]1C(=O)N[C@@H](CCN1C(=O)c2ccc(N(C)C)cc2C1=O)C(=O)N[C@H](C(=O)N[C@@H](CCC(=O)O)C(=O)N[C@@H](CO)C(=O)N[C@@H](CC(=O)O)C(=O)N[C@H](C(=O)O)C(C)C)[C@@H](C)CC,"Disks large homolog 4, PDZ3 domain (Homo sapiens, UniProt P78352)","PDZ domain binding, fluorescence emission intensity",PSD-95 PDZ3 domain,4-DMAP-Dab at position -5,baseline: probe without PDZ domain,relative fluorescence increase,35.1
COC(=O)c1cnc(-c2cnccn2)cc1C(=O)OC.COC(=O)c1cnc(-c2cnccn2)cc1C(=O)OC.F[P-](F)(F)(F)(F)F.[Ag+],"Albumin (ALB, Bos taurus, UniProt P02769)",fluorescence emission,,emission 365.0 nm,,fluorescence quenching,79.4%
CC(C)CN(CC(=O)N1CCN(CC(OCc2ccc3ccccc3c2)c2ccc(Cl)cc2Cl)CC1)CC(C)C (stereo not shown),"ULK1 (Homo sapiens, UniProt O75385)","enzyme activity, inhibitor, ADP detection",,0.1 µM,,activity vs control,196%
CNc1ccccc1C(=O)O[C@H]1C[C@H](n2cnc3c(N)ncnc32)O[C@@H]1COP(=O)(O)OP(=O)(O)O,"Unconventional myosin-Va (Gallus gallus, UniProt Q02440, D297C/G292C/I296C/S293C/V295G)",van't Hoff analysis,,"concentration not given, together with: 2 mM Mg2+",,∆H of ligand binding,-10.7 ± 0.4 kcal/mol
CCCCOc1ccc(C(=O)OCC[N+]2(C)CC=CCC2)cc1 (stereo not shown),"CHRM4 (Homo sapiens, UniProt P08173)",recovery of [3H]NMS binding after washing,membranes,100 µM,,dissociation half-time,0.4 ± 0.1 h
CC(=O)c1cnc(N)nc1N1CC[C@H]1c1nn2ccc(Cl)c2c(=O)n1-c1ccccc1,"Phosphatidylinositol 4,5-bisphosphate 3-kinase catalytic subunit beta isoform (Rattus norvegicus, UniProt Q9Z1L0)",KiNativ,rat leukocyte lysate,"1 µM, 0.25 h",,binding,46%
CCc1nc2cc3ccccc3cc2cc1C(=O)N1CCC[C@H]1C(=O)N[C@@H](CCC/C=C/CCC[C@H](NC(=O)[C@@H]1CCCN1C(=O)c1cc2cc3ccccc3cc2nc1CC)C(=O)N[C@@H](CCCCN)C(=O)NCCCN)C(=O)N[C@@H](CCCCN)C(=O)NCCCN,(CUG)2 RNA,SPR,,,,residence time,109 s
CCNc1nc2c(c(=O)[nH]1)[n+](C)cn2[C@@H]1O[C@H](COP(=O)(O)OP(=O)(O)OP(=O)(O)OC[C@H]2O[C@@H](n3cnc4c(=O)[nH]c(N)nc43)[C@H](O)[C@@H]2O)[C@@H](O)[C@H]1O,DCPS,"decapping, substrate, HPLC",,concentration not given,,initial hydrolysis rate,0.92 ± 0.12 µM/min

# Repeated from above:
SMILES,target,test,system,setting,how to read,quantity,value
CC(C)CN(CC(=O)N1CCN(CC(OCc2ccc3ccccc3c2)c2ccc(Cl)cc2Cl)CC1)CC(C)C (stereo not shown),"ULK1 (Homo sapiens, UniProt O75385)","enzyme activity, inhibitor, ADP detection",,0.1 µM,,activity vs control,196%
